{"data": "Assay results of several laboratories", "note": "Each numbered part is a random draw from the data of one study; scales do not carry over between parts. Substitutions count along the parent as printed."}
{"data": "Block 1", "target": "CCNA2, cyclin fold, Cln2 fusion (human)", "method": "yeast growth competition, sequencing", "medium": "yeast", "setting": "strong parent motif", "relative to": "not given", "reading": "higher = stronger binding", "starting sequence": "RB1 docking peptide (human); PKPLKKLRFDIEG"}
{"Variant": "PKPLKKLREDIEG [F9E]", "normalised enrichment score": -0.429}
{"Variant": "PKPLKKLRFDIEP [G13P]", "normalised enrichment score": 2.69}
{"Variant": "PKPLKKLRFRIEG [D10R]", "normalised enrichment score": 2.93}
{"Variant": "PKPLKKLRFDVEG [I11V]", "normalised enrichment score": 1.19}
{"Variant": "PKILKKLRFDIEG [P3I]", "normalised enrichment score": 1.05}
{"Variant": "PKPLKKLRFDISG [E12S]", "normalised enrichment score": 1.2}
{"Variant": "PKPLKKLRFDDEG [I11D]", "normalised enrichment score": 1.01}
{"Variant": "PKPLKKLRFYIEG [D10Y]", "normalised enrichment score": 1.44}
{"Variant": "PKPLKALRFDIEG [K6A]", "normalised enrichment score": 1.38}
{"Variant": "PCPLKKLRFDIEG [K2C]", "normalised enrichment score": 0.944}
{"Variant": "PKPEKKLRFDIEG [L4E]", "normalised enrichment score": 0.723}
{"Variant": "PKPLKPLRFDIEG [K6P]", "normalised enrichment score": -0.0846}
{"Variant": "PKPLQKLRFDIEG [K5Q]", "normalised enrichment score": 0.857}
{"Variant": "PAPLKKLRFDIEG [K2A]", "normalised enrichment score": 1.11}
{"Variant": "PHPLKKLRFDIEG [K2H]", "normalised enrichment score": 0.219}
{"Variant": "PKPLKKLRFDIER [G13R]", "normalised enrichment score": 1.84}
{"Variant": "PKPLKNLRFDIEG [K6N]", "normalised enrichment score": 0.383}
{"Variant": "PKPLKHLRFDIEG [K6H]", "normalised enrichment score": 1.59}
{"Variant": "PKPLKKLFFDIEG [R8F]", "normalised enrichment score": 1.39}
{"Variant": "PKPLKKLRFDLEG [I11L]", "normalised enrichment score": 2.11}
{"Variant": "PKPLAKARFDIEG [K5A L7A]", "normalised enrichment score": 0.519}
{"Variant": "PKPLRKLRLDIEG [K5R F9L]", "normalised enrichment score": 0.554}
{"Variant": "PKPLKQLRFDIEG [K6Q]", "normalised enrichment score": 1.37}
{"Variant": "PKPLVKLRFDIEG [K5V]", "normalised enrichment score": -0.0384}
{"data": "Block 2", "target": "JUND, bZIP domain (human)", "method": "DHFR protein complementation", "medium": "yeast", "setting": "single substitutions, most at no-binding floor", "relative to": "wild-type JUN-FOS pair", "reading": "higher = stronger binding", "starting sequence": "JUN, bZIP domain (human); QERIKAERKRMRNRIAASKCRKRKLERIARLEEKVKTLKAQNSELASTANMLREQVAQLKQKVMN"}
{"Variant": "L59A", "binding fitness [natural log]": -1.28}
{"Variant": "I28P", "binding fitness [natural log]": -1.3}
{"Variant": "I28D", "binding fitness [natural log]": -1.38}
{"Variant": "E44G", "binding fitness [natural log]": -1.25}
{"Variant": "L59G", "binding fitness [natural log]": -1.5}
{"Variant": "L31A", "binding fitness [natural log]": -1.42}
{"Variant": "I28N", "binding fitness [natural log]": -1.31}
{"Variant": "N42Y", "binding fitness [natural log]": -1.3}
{"Variant": "E32W", "binding fitness [natural log]": -1.28}
{"Variant": "E32F", "binding fitness [natural log]": -1.29}
{"Variant": "L38H", "binding fitness [natural log]": -1.49}
{"Variant": "V35K", "binding fitness [natural log]": -1.29}
{"Variant": "V56T", "binding fitness [natural log]": -1.38}
{"Variant": "M51P", "binding fitness [natural log]": -1.43}
{"Variant": "V35H", "binding fitness [natural log]": -1.46}
{"Variant": "L38N", "binding fitness [natural log]": -1.49}
{"Variant": "I28Y", "binding fitness [natural log]": -1.3}
{"Variant": "L31K", "binding fitness [natural log]": -1.45}
{"Variant": "L52F", "binding fitness [natural log]": -1.44}
{"Variant": "L31F", "binding fitness [natural log]": -1.48}
{"Variant": "S47P", "binding fitness [natural log]": -1.35}
{"Variant": "L38I", "binding fitness [natural log]": -1.52}
{"data": "Block 3", "target": "ABI1, truncated, D143A, DHFR fusion (Arabidopsis thaliana)", "method": "DHFR PCA, deep sequencing", "medium": "yeast", "setting": "methotrexate growth selection, single substitutions", "with": "(+)-ABA 17 µM", "relative to": "wild-type fitted maximum", "reading": "higher = stronger binding", "starting sequence": "PYL1, truncated, DHFR fusion (Arabidopsis thaliana); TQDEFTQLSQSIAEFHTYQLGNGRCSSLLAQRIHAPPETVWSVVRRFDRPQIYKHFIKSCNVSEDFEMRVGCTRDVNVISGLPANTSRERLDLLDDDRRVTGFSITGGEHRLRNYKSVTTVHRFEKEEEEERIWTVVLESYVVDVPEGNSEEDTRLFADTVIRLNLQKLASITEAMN"}
{"Variant": "N177D", "relative binding score [%]": 95.2}
{"Variant": "P83C", "relative binding score [%]": 12.5}
{"Variant": "L28C", "relative binding score [%]": 59.9}
{"Variant": "P36C", "relative binding score [%]": 71.6}
{"Variant": "Q167R", "relative binding score [%]": 92.4}
{"Variant": "S117W", "relative binding score [%]": -10.1}
{"Variant": "D65N", "relative binding score [%]": 83.9}
{"Variant": "D159I", "relative binding score [%]": -24.1}
{"Variant": "S140M", "relative binding score [%]": -8.29}
{"Variant": "F157P", "relative binding score [%]": -2.97}
{"Variant": "N77E", "relative binding score [%]": 92.2}
{"Variant": "N177V", "relative binding score [%]": 88.4}
{"Variant": "H55G", "relative binding score [%]": 91.1}
{"Variant": "R111I", "relative binding score [%]": 7.62}
{"Variant": "V121W", "relative binding score [%]": -0.168}
{"Variant": "D153F", "relative binding score [%]": 0.572}
{"data": "Block 4", "target": "Histone acetyltransferase KAT6A, winged helix 2, GST fusion (KAT6A, Homo sapiens, UniProt Q92794, residues 85-181)", "method": "protein binding microarray", "molecule type": "double-stranded DNA, one strand shown", "medium": "in vitro", "concentration": "not given", "setting": "8-mer, flanks averaged, mean of 2 arrays, mostly near background", "relative to": "not given", "reading": "higher = stronger binding", "Target sequence (chain)": "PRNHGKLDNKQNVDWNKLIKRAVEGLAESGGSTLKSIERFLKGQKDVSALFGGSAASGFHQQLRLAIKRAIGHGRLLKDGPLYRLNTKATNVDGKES"}
{"Oligonucleotide": "CTGAGGGA", "E-score": -0.104}
{"Oligonucleotide": "CATTCTCA", "E-score": -0.0416}
{"Oligonucleotide": "CAGGCACA", "E-score": -0.0635}
{"Oligonucleotide": "GGGCGCGA", "E-score": 0.323}
{"Oligonucleotide": "GGCTACCA", "E-score": 0.118}
{"Oligonucleotide": "AACCGATG", "E-score": -0.0435}
{"Oligonucleotide": "CCAACTTC", "E-score": -0.194}
{"Oligonucleotide": "CTAAAGGA", "E-score": 0.117}
{"Oligonucleotide": "CGCAGACC", "E-score": 0.0173}
{"Oligonucleotide": "CACGGACA", "E-score": -0.0141}
{"Oligonucleotide": "CAGCCATC", "E-score": -0.0615}
{"Oligonucleotide": "CACCCCTC", "E-score": -0.0229}
{"Oligonucleotide": "TCTCCCAA", "E-score": 0.0176}
{"Oligonucleotide": "ATAAATAC", "E-score": -0.0131}
{"Oligonucleotide": "ACCAAAAT", "E-score": 0.0505}
{"Oligonucleotide": "AGCCTTGC", "E-score": 0.122}
{"Oligonucleotide": "AGAGAGCG", "E-score": -0.00481}
{"note": "A few entries again (block 1):"}
{"Variant": "PKPLKKLRFYIEG [D10Y]", "normalised enrichment score": 1.44}
{"Variant": "PKPLKALRFDIEG [K6A]", "normalised enrichment score": 1.38}
{"Variant": "PCPLKKLRFDIEG [K2C]", "normalised enrichment score": 0.944}
{"Variant": "PKPEKKLRFDIEG [L4E]", "normalised enrichment score": 0.723}
{"Variant": "PKPLKPLRFDIEG [K6P]", "normalised enrichment score": -0.0846}
